Published values collected from several papers.
Protocols differ between the studies behind these lines. Several values in a cell are separate wells, animals, samples, runs or records. ± marks the error that the study gave.
Chromobox protein homolog 8: Chromobox protein homolog 8 (Homo sapiens, UniProt Q9HC52)
USP5: Ubiquitin carboxyl-terminal hydrolase 5 (USP5, Homo sapiens, UniProt P45974)
CASP9: Caspase-9 (CASP9, Homo sapiens, UniProt P55211)
Lysophospholipase-like protein 1: Lysophospholipase-like protein 1 (Mus musculus, UniProt Q3UFF7)
CASP4: Caspase-4 (CASP4, Homo sapiens, UniProt P49662)
14-3-3 protein epsilon: 14-3-3 protein epsilon (Homo sapiens, UniProt P62258)

| Structure (SMILES) | target or system | assay | system | conditions | how to read | endpoint | value |
| --- | --- | --- | --- | --- | --- | --- | --- |
| CC(C)C[C@H](NC(=O)[C@@H](NC(=O)[C@H](Cc1ccccc1)NC(=O)c1ccc(OC(C)(C)C)cc1)C(C)C)C(=O)N[C@@H](CCCCN(C)C1CC2CCC1C2)C(=O)N[C@@H](CO)C(N)=O (some centres unmarked) | Chromobox protein homolog 8 | TR-FRET displacement | – | – | relative to: IC50 CBX7 over IC50 CBX8 | selectivity ratio | 48 |
| N=C(N)NCCS(=O)(=O)O | Sodium- and chloride-dependent taurine transporter (SLC6A6, Homo sapiens, UniProt P31641, G62A) | binding, microscale thermophoresis | – | 122 nM, room temperature, together with: 50 nM labelled protein | higher = more binding | normalised MST signal | 0.0378 |
| C=CCNC(=O)c1ccc2nc(-c3ccco3)c(-c3ccco3)nc2c1 | USP5 | enzyme activity, inhibitor | – | 17 µM | – | inhibition | 66% |
| CCCC[C@H](NC(C)=O)C(=O)N[C@@H](CCC(=O)O)C(=O)N[C@@H](CO)C(=O)N[C@@H](CC(=O)O)C(=O)COC(=O)c1c(C)cccc1C | CASP9 | enzyme activity, inhibitor | – | – | – | kinact/KI | 78000 M⁻¹ s⁻¹ |
| CC1=NN(C(C)(C)C)C(=O)C1 | USP5 | enzyme activity, inhibitor | – | 17 µM | – | inhibition | 85% |
| CN(C)c1ccc2c(c1)C(=O)N(CCc1ccc(OS(N)(=O)=O)cc1)C2=O | Carbonic anhydrase 2 (CA2, Homo sapiens, UniProt P00918) | binding | – | – | – | emission maximum | 546 nm |
| Nc1nc(SCc2ccccc2)nn1S(=O)(=O)c1ccc(F)cc1Cl | Lysophospholipase-like protein 1 | enzyme activity, activator, gel-based ABPP | purified protein | concentration not given, together with: FP-rhodamine | relative to: DMSO | probe labeling increase | 1.3 fold |
| COc1cc(Nc2nccc(-c3cnn4nc(OC)ccc34)n2)cc(C(F)(F)F)c1 | Epidermal growth factor receptor (EGFR, Homo sapiens, UniProt P00533, del752-759) | binding | – | 1 µM | – | remaining binding | 100% |
| Oc1cccc2c1NCCC2 | USP5 | enzyme activity, inhibitor | – | 17 µM | – | inhibition | 44% |
| CC[C@H](NC(=O)[C@@H](NC(=O)[C@@H](NC(C)=O)C(C)C)C(C)(C)C)C(=O)N[C@@H](CC(=O)O)C(=O)COC(=O)c1c(C)cccc1C | CASP4 | enzyme activity, inhibitor | – | – | – | kinact/KI | 11900 M⁻¹ s⁻¹ |
| CC(C)Oc1cc(Cl)ccc1CNc1cc(-c2ccccc2)nc2ncnn12 | G-protein coupled receptor 3 (GPR3, Homo sapiens, UniProt P46089, Q215A) | cAMP level, cAMP GloSensor | – | 1 nM | higher = more cAMP | cAMP luminescence | 32500 a.u. and 45000 a.u. and 42600 a.u. and 38500 a.u. and 38700 a.u. |
| COc1cc(/C=C2\S/C(=N/c3ccc(F)cc3C(=O)O)NC2=O)cc(OC)c1OC | Dihydroorotate dehydrogenase (quinone), mitochondrial (DHODH, Homo sapiens, UniProt Q02127) | enzyme activity, inhibitor, DCIP reduction | – | 1 µM | higher = more activity | reaction rate | -24.6 a.u. |
| O=C1c2sc(-c3ccc(N4CCC(CO)CC4)nc3F)nc2CCN1c1cccnc1 | TAR DNA-binding protein 43, aggregated (TARDBP, Homo sapiens, UniProt Q13148) | radioligand binding | human, FTLD-TDP type B sarkosyl-insoluble extract | 13.55 nM | – | specific binding | 1.36 nM and 1.34 nM |
| CC1(C)NC(=O)N(c2ccc(F)c(C(C)(F)F)c2)C1=O | Androgen receptor (AR, Homo sapiens, UniProt P10275) | reporter gene | LAPC4 | up to 100 µM, together with: DHT | – | transcriptional activity | no effect |
| C=CC(=O)N1CCCC(n2c(=O)c3ncccc3n(Cc3ccc(Oc4ccccc4)cc3)c2=O)C1 (centres unmarked) | Putative protein-lysine deacylase ABHD14B (Homo sapiens, UniProt Q96IU4) | thermal proteome profiling | – | unit not given | relative to: untreated control | melting temperature shift | -2.7 |
| O=C(CCC(F)(F)F)Nc1ccc(C2CCCCC2)cc1 | – | liver microsome stability | rat liver microsomes | 1 µM | – | hepatic clearance | 50 mL/min/kg |
| Nc1ncnc2c1ncn2C1OC(CN(CCCC2CNCc3c2ccc(Cl)c3Cl)CCC(N)C(=O)O)C(O)C1O (mixture of isomers) | Phenylethanolamine N-methyltransferase (PNMT, Homo sapiens, UniProt P11086) | ITC | – | second site, SAH bound | – | ΔH-2 | 6.8 kcal/mol |
| CC(=O)N[C@H](C(=O)N[C@@H](CCCC(=O)O)C(=O)N[C@@H](CCC1CCCCC1)C(=O)N[C@@H](CC(=O)O)C(=O)COC(=O)c1c(C)cccc1C)C(C)(C)C | CASP4 | enzyme activity, inhibitor | – | – | – | kinact/KI | 30000 M⁻¹ s⁻¹ |

| Structure (SMILES) | target or system | assay | system | conditions | how to read | endpoint | value |
| --- | --- | --- | --- | --- | --- | --- | --- |
| O=C(CCc1ccc2n1[B-](F)(F)[N+]1=C(c3ccc[nH]3)C=CC1=C2)NCCCn1cc([C@H]2CN(Cc3ccccn3)C(=O)[C@@H]3CCC[C@H]2N3S(=O)(=O)c2cc(Cl)cc(Cl)c2)nn1 | Peptidyl-prolyl cis-trans isomerase FKBP4 (FKBP4, Homo sapiens, UniProt Q02790) | tracer binding, NanoBRET tracer titration | HEK293T transiently expressing FKBP4 | – | – | Hill slope | 1.1 ± 0.2 |
| N#Cc1ccc(N2C(=O)c3ccccc3C2=O)cc1 | USP5 | enzyme activity, inhibitor | – | 17 µM | – | inhibition | 0% |
| CCCCCCCCCCCCC/C=C/C=O | Large ribosomal subunit protein eL24 (Homo sapiens, UniProt P83731) | competitive isoTOP-ABPP | proteome, soluble, MDA-MB-231 | 100 µM, 60 min, together with: iodoacetamide probe | relative to: DMSO over compound-treated, higher = stronger cysteine blockade | isoTOP-ABPP competition ratio | 1.3 |
| CC(C)C[C@H](NC(=O)[C@@H](NC(=O)[C@H](Cc1ccccc1)NC(=O)c1ccc(C(C)(C)C)cc1)C1CC1)C(=O)N[C@@H](CCCCN(C)C1CC2CCC1C2)C(=O)N[C@@H](CO)C(N)=O (some centres unmarked) | Chromobox protein homolog 8 | TR-FRET displacement | – | – | relative to: IC50 CBX7 over IC50 CBX8 | selectivity ratio | 1.6 |
| CN(Cc1cc(C2CC2)on1)C(=O)c1cccc(-c2ccc3c(c2)CCO3)c1 | Acetyl-CoA synthetase (Cryptococcus neoformans, UniProt J9VFT1) | enzyme activity, inhibitor, coupled pyrophosphate | – | 977 nM | higher is more activity | reaction rate | 0.00161 a.u. |
| CC(=O)N[C@@H](CC(=O)O)C(=O)N[C@H](C(=O)N[C@@H](C)C(=O)N[C@@H](CC(=O)O)C(=O)COC(=O)c1c(C)cccc1C)[C@@H](C)OCc1ccccc1 | CASP9 | enzyme activity, inhibitor | – | – | – | kinact/KI | 29600 M⁻¹ s⁻¹ |
| Cn1ccc2c(S(=O)(=O)n3nc(SCc4ccc(Cl)cc4)nc3N)cccc21 | Lysophospholipase-like protein 1 | enzyme activity, activator, gel-based ABPP | purified protein | concentration not given, together with: FP-rhodamine | relative to: DMSO | probe labeling increase | 1.4 fold |
| O=C(c1ccc(C2CCCCC2)cc1)N1CCC(F)CC1 | – | liver microsome stability | rat liver microsomes | 1 µM | – | hepatic clearance | 52 mL/min/kg |
| CC(=O)N[C@@H](CC(=O)O)C(=O)N[C@@H](CC(C)C)C(=O)N[C@@H](C)C(=O)N[C@@H](CC(=O)O)C(=O)COC(=O)c1c(C)cccc1C | CASP4 | enzyme activity, inhibitor | – | – | – | kinact/KI | 2300 M⁻¹ s⁻¹ |
| CC1CCCc2c(N)nc(N)nc21 (centres unmarked) | Dihydrofolate reductase (folA, Escherichia coli, UniProt P0ABQ4) | – | – | concentration not given, ternary complex with NADPH | – | exchange rate kex | 585 ± 132 s⁻¹ |
| COC(=O)[C@@]1(C)C=C(C(=O)Nc2cccc(C(=O)Nc3ccc(Nc4nccc(-c5cccnc5)n4)c(C)c3)c2)C(=O)CC1 | Mitogen-activated protein kinase 8 (MAPK8, Homo sapiens, UniProt P45983, C116S) | noncovalent binding, SPR | – | 100, 300, 1000 nM, two-step kinetic model | – | koff | 0.0317 s⁻¹ |
| Cc1cc(C)cc(COc2cc3c(cc2OCc2cc(C)cc(C)c2)C2CC(O)(Cc4cn(CCOCCOCCNC(=O)CCCCC5SCC6NC(=O)NC65)nn4)CC(C)N2CC3)c1 (centres unmarked) | 14-3-3 protein epsilon | biotinylated probe pull-down, measured: YWHAE | – | 10 µM probe | relative to: heavy over light | SILAC ratio | 1.39 |
| CC(=O)N1CCC[C@H]1C(=O)N[C@H](C(=O)NCC(=O)N[C@@H](CC(=O)O)C(=O)COC(=O)c1c(C)cccc1C)C(C)(C)C | CASP9 | enzyme activity, inhibitor | – | – | – | kinact/KI | 59900 M⁻¹ s⁻¹ |
| CC(=O)N[C@@H](CCCNC(=N)N)C(=O)N[C@H](C(=O)N[C@@H](CCCCN)C(=O)N[C@@H](CO)C(=O)N[C@@H](CCCNC(=N)N)C(=O)N[C@H](C(=O)N[C@@H](Cc1c[nH]c2ccccc12)C(=O)N[C@@H](C)C(=O)N[C@H](C(N)=O)C(C)C)[C@@H](C)OP(=O)(O)O)[C@@H](C)O | 14-3-3 protein epsilon | binding, SPR | – | – | – | kon | 830000 M⁻¹ s⁻¹ |
| CCN1CCN(Cc2ccc(NC(=O)c3ccc(C)c(NC(=O)c4cncc(-c5cccs5)c4)c3)cc2C(F)(F)F)CC1 | Tyrosine-protein kinase ABL1 (ABL1, Homo sapiens, UniProt P00519, Y253F) | binding, competition with immobilised ligand | – | 1 µM | – | remaining binding | 0.25% |
| CC(=O)N1[C@H](C(=O)N[C@H](C(=O)N[C@@H](Cc2c[nH]cn2)C(=O)N[C@@H](CC(=O)O)C(=O)COC(=O)c2c(C)cccc2C)C(C)(C)C)C[C@@H]2CCCC[C@@H]21 | CASP4 | enzyme activity, inhibitor | – | – | – | kinact/KI | 1100 M⁻¹ s⁻¹ |
| CC[C@H](C)[C@H](NC(=O)[C@H](Cc1ccccc1)NC(=O)[C@H](CCC(=O)O)NC(=O)[C@H](CCCCN)NC(=O)[C@H](C)NC(=O)[C@H](C)NC(=O)[C@H](CCC(N)=O)NC(=O)CNC(=O)[C@H](CCC(=O)O)NC(=O)[C@H](CC(C)C)NC(=O)[C@H](Cc1ccc(O)cc1)NC(=O)[C@H]1CCC[C@@H]1NC(=O)[C@H](CO)NC(=O)C(C)(C)NC(=O)[C@H](CC(=O)O)NC(=O)[C@H](CO)NC(=O)[C@@H](NC(=O)[C@H](Cc1ccccc1)NC(=O)[C@@H](NC(=O)CNC(=O)[C@H](CCC(=O)O)NC(=O)[C@H](C)NC(=O)[C@@H](N)Cc1c[nH]cn1)[C@@H](C)O)[C@@H](C)O)C(=O)N[C@@H](C)C(=O)N[C@@H](Cc1c[nH]c2ccccc12)C(=O)N[C@@H](CC(C)C)C(=O)N[C@H](C(=O)N[C@@H](CCCCN)C(=O)NCC(=O)N[C@@H](CCCNC(=N)N)C(N)=O)C(C)C | Glucagon-like peptide 1 receptor (GLP1R, Homo sapiens, UniProt P43220) | β-arrestin-1 recruitment, agonist, BRET | – | – | relative to: GLP-1 | efficacy | 26 ± 2% |

A few entries again:
| Structure (SMILES) | target or system | assay | system | conditions | how to read | endpoint | value |
| --- | --- | --- | --- | --- | --- | --- | --- |
| CC(=O)N[C@@H](CC(=O)O)C(=O)N[C@@H](CC(C)C)C(=O)N[C@@H](C)C(=O)N[C@@H](CC(=O)O)C(=O)COC(=O)c1c(C)cccc1C | CASP4 | enzyme activity, inhibitor | – | – | – | kinact/KI | 2300 M⁻¹ s⁻¹ |
| CC1CCCc2c(N)nc(N)nc21 (centres unmarked) | Dihydrofolate reductase (folA, Escherichia coli, UniProt P0ABQ4) | – | – | concentration not given, ternary complex with NADPH | – | exchange rate kex | 585 ± 132 s⁻¹ |
| COC(=O)[C@@]1(C)C=C(C(=O)Nc2cccc(C(=O)Nc3ccc(Nc4nccc(-c5cccnc5)n4)c(C)c3)c2)C(=O)CC1 | Mitogen-activated protein kinase 8 (MAPK8, Homo sapiens, UniProt P45983, C116S) | noncovalent binding, SPR | – | 100, 300, 1000 nM, two-step kinetic model | – | koff | 0.0317 s⁻¹ |
